Results pooled from the literature.
Target: Microtubule-associated serine/threonine-protein kinase 1 (MAST1, Homo sapiens, UniProt Q9Y2H9)

| Structure (SMILES) | read-out | technique | tested at | relative to | remaining binding [%] |
| --- | --- | --- | --- | --- | --- |
| Cc1cnc2nc1Nc1cccc(c1)COC/C=C/COCc1cc(ccc1OCCN1CCOCC1)N2 | binding | – | 0.1 µM | – | 98 |
| CC(C)=CC1OC(C)(C)C2C=C3C(=O)C(Cl)=CC(O)C3C3C(O)C4OC4C(=O)C132 (centres unmarked) | cell-free assay | competition with immobilised ligand | 10 µM | – | 85 |
| Nc1ncc2c(n1)-c1c([nH]c3ccc(C4=CCOCC4)cc13)CCC2 | binding | competition with immobilised ligand | 1 µM | – | 100 |
| COc1cc(Nc2nccc(-c3cnn4nc(OC)ccc34)n2)cc(C(F)(F)F)c1 | binding | competition with immobilised ligand | 1 µM | – | 93 |
| C=CC(=O)N1CCc2ccc(-n3c(=O)ccc4cnc5ccc(-c6cnn(C)c6)cc5c43)cc21 | – | KINOMEscan | 1 µM | DMSO control | 100 |
| CNC(=O)C1CCN(c2cc(C)c(F)cc2NC(=O)c2ccc(-c3cc(O)ccc3C)c(C)c2)CC1 | binding | competition with immobilised ligand | 1 µM | – | 95 |
| COc1c(Cl)cccc1Nc1c(-c2ccncc2C#C[C@@]2(C)CCCN2C(=O)/C=C/CN(C)C)[nH]c2c1C(=O)NCC2 | binding | competition with immobilised ligand | 3 µM | – | 29 |
| C=CC(=O)N1CCCC(n2c(=O)c3ncccc3n(Cc3ccc(Oc4ccccc4)cc3)c2=O)C1 (centres unmarked) | cell-free assay | competition with immobilised ligand | 1 µM | – | 94 |
| Cc1ccc(-c2c(/C=C(\C#N)C(=O)NC(C)C)n(CCCO)c3ncnc(N)c23)cc1 | cell-free assay | competition with immobilised ligand | 1 µM | – | 87 |
| CCN1CCN(Cc2ccc(C(=O)Nc3ccc(C)c(NCc4cnc5[nH]ccc5c4OC)c3)cc2C(F)(F)F)CC1 | binding | competition with immobilised ligand | 1 µM | – | 34 |
| CNC1C[S+]2CC[S+]3CC[S+](C1)[Ru-4]321([N]=C=S)[n]2c3ccc(OC)cc3c3c4c(c5cc(F)c[n+]1c5c32)C(=O)NC4=O (centres unmarked) | – | KinomeScan | 0.1 µM | untreated | 77 |

For quick reference, copied from above:
| Structure (SMILES) | read-out | technique | tested at | relative to | remaining binding [%] |
| --- | --- | --- | --- | --- | --- |
| C=CC(=O)N1CCc2ccc(-n3c(=O)ccc4cnc5ccc(-c6cnn(C)c6)cc5c43)cc21 | – | KINOMEscan | 1 µM | DMSO control | 100 |
